Measured values of several laboratories.
Each numbered part is a random draw from the data of one study; scales do not carry over between parts. Substitutions count along the parent as printed.

Block 1 — target: CREB3L1, bZIP domain (human); method: DHFR protein complementation; sample: yeast; baseline: wild-type JUN-FOS pair; direction: higher = stronger binding
Setting: single substitutions, most at no-binding floor
Parent: JUN, bZIP domain (human); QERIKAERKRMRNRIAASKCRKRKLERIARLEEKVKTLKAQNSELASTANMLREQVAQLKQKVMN; partner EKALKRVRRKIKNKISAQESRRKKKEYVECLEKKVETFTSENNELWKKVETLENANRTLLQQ
Variant | binding fitness [natural log]
A46C | -1.46
R30E | -1.3
M51Y | -1.41
N42M | -1.48
A40D | -1.43
S47N | -1.24
R53L | -1.41
L45D | -1.53
Q55L | -1.47
A29H | -1.5
S43G | -1.34
K39H | -1.54
K36L | -1.44
S47P | -1.54
R30G | -1.26
Q41L | -1.49
A49K | -1.39

Block 2 — method: protein binding microarray; form: double-stranded DNA, one strand shown; sample: in vitro; tested at: not given; baseline: not given; direction: higher = stronger binding
Target: Histone acetyltransferase KAT6A, both winged helices, GST fusion (KAT6A, Homo sapiens, UniProt Q92794, residues 1-181)
Setting: 8-mer, flanks averaged, mean of 2 arrays, mostly near background
Target sequence (chain): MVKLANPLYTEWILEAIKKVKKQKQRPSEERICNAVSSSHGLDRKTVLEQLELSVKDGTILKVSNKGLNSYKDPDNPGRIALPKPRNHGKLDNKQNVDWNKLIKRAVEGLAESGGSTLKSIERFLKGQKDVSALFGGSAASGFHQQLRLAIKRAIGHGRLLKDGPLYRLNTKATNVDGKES
Oligonucleotide | E-score
CTCCAACC | -0.0813
GATCACAA | -0.123
AATCCATA | -0.0788
CTGTTTAC | -0.0395
CGCCTGGA | -0.00529
GCGGGACA | 0.295
AAATGAAG | -0.0223
AAATATTG | 0.00949
CTAACGGC | 0.217
CAATTTGC | -0.131
AACTCTGA | 0.0427
CCCTGACG | 0.0401
AGCCGACG | 0.317
AGAGCTAG | -0.148
TCCCTTAA | -0.144
GAACTGGC | -0.0592

Block 3 — method: RNA Bind-n-Seq; form: RNA; sample: in vitro; tested at: 200 nM; setting: whole 134-nt RNA, ends assumed; together with: 150 mM KCl; baseline: input library; direction: higher = stronger binding
Target: Fragile X messenger ribonucleoprotein 1, C-terminal low-complexity region (Fmr1, Mus musculus, UniProt P35922)
Oligonucleotide | log2 enrichment
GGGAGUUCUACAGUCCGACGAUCUGGGAGGUGGAUUUUGUUUAUUUUUUUAGCUCAUUUCCAGGGGUGGGAAUUUUUUUUUAAUAUGUGUAAUGAAUAAAGUUGUUUUUGAAAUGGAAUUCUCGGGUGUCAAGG | 0.145
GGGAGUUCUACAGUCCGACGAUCACCAUGCAGGAGGGCAUCUUUGGGAAGUGGGGCAAGGGGGGGAUAGGGAGGGGGGUAACACUUUGGGAACAGGUGGUCCCAGGUCGUUUCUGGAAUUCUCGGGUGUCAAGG | 0.798
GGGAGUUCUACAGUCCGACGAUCACCAUGCAGGUGGGCAUCUUUGGGAAGUGGGGCAAGGGGGGGAUAGGGAGGGGGGUAACAAUUUGGGAACAGGUGGUCCCAGGUCGUUUCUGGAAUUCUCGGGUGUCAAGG | 0.62
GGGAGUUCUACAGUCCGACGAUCUGGCCCUGGUGGCAUGCGGGGAGGAAGAGGCGGCCUCAUGGAUCGUGGUGGUCCCGGUGGAAUGUUCAGAGGUGGCCGUGGUGGAGACAGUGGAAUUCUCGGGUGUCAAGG | -0.118
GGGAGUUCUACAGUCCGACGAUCCAAGUCCUGUGCUACACAUCGUAUGUACCGAAUCGGGUUUGGUUUGGGGUUUGGGGAAAGUAUUAUGUUACGCCGUUCGGAUCUGCACUUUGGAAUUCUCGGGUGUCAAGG | 0.529
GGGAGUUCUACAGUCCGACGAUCUGUCUUUCCUGGUGACUAGGAUGUCGUCGGAGGAGGACAAGAGCGUGGAGCAGCCGCAGCCGCCGCCACCACCCCCCGAGGAGCCUGGAGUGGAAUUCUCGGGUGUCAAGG | -0.401
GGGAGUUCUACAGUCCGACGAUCUCAAGUCCUGUGCUACACAUCGUAUGUACCGAAUCGGGGUUGGGGUUGGUUGGGGAAAGUAUUAUGUUACGCCGUUCGGAUCUGCACUUCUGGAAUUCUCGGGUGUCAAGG | 0.824
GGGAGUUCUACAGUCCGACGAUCUGGCCCUGGUGGCAUGCGGGGAGGAAGAGGUGGCCUCAUGGAUCGUGGUGCUCCCGGUGGAAUGUUCAGAGGUGGCCGUGGUGGAGACAGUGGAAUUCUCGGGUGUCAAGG | 0.824
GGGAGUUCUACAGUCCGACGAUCUGGCCCUGGUGGCAUGCGGGGAGGAAGAGGUGGCCUCAUGGAUCGUGGUGGUCCCGGUGGAAUGUUCAGAGGUGGCCGUGGUGGAGAAAGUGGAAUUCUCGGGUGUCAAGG | 0.243
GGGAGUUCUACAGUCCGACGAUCCAAGUCCUGUGCUACACAUCGUAUGUACCGAAUCGGGUUUUGGUUUUGGUUUUGGGAAAGUAUUAUGUUACGCCGUUCGGAUCUGCACUUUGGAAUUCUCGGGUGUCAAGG | -0.759

Block 4 — method: DHFR PCA, deep sequencing; sample: yeast; together with: (+)-ABA 200 µM; baseline: wild-type fitted maximum; direction: higher = stronger binding
Target: ABI1, truncated, D143A, DHFR fusion (Arabidopsis thaliana)
Setting: methotrexate growth selection, single substitutions
Parent: PYL1, truncated, DHFR fusion (Arabidopsis thaliana); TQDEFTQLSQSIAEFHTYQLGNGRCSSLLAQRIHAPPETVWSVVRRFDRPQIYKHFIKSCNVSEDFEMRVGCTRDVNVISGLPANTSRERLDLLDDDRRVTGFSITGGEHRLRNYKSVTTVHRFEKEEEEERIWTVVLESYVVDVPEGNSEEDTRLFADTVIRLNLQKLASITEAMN
Variant | relative binding score
Q167N | 95%
N85V | 106%
F124R | 90.1%
G148Y | 68%
P37Q | 81.7%
T106M | 109%
E4G | 87.5%
D75Y | 102%
G23E | 89.9%
R111Y | 51.6%
P50K | 7.5%
T6W | 94.8%
S26H | 96.6%

Block 5 — target: CCNE2, cyclin fold, Cln2 fusion (human); method: yeast growth competition, sequencing; sample: yeast; setting: strong parent motif; baseline: not given; direction: higher = stronger binding
Parent: BRCA2 docking peptide (human); PSIKRNLLNEFDR
Variant | normalised enrichment score
PSIKRNLLNEFAR [D12A] | 3.16
PSIKRNLLNEFNR [D12N] | 1.92
PSIKRNLLNEIDR [F11I] | 1.28
PSIKRNLLNEFSR [D12S] | 2.41
PSIKRNFLNEFDR [L7F] | -0.0682
PSIKRYLLNEFDR [N6Y] | 0.39
PSIKRNLLNWFDR [E10W] | 1.44
PSIVRNLLNEFDR [K4V] | 2.33
PSIKINLLNEFDR [R5I] | -0.132
PSIKRNLLFEFDR [N9F] | 1.53
PSIKENLLNEFDR [R5E] | -0.173
PSIKRNWLNEFDR [L7W] | 0.434
PSIKYNLLNEFDR [R5Y] | -0.429
PSNKRNLLNEFDR [I3N] | 0.271
TSIKRNLLNEFDR [P1T] | 1.52
PEIKRNLLNEFDR [S2E] | 0.219
PSIRRNLLNEFDR [K4R] | 1.35
PCIKRNLLNEFDR [S2C] | 1.26
PSIKRNLLNEFDC [R13C] | 0.688
FSIKRNLLNEFDR [P1F] | 1.78
PSIKRNKLNEFDR [L7K] | 0.955
PSIKRMLLNEFDR [N6M] | -0.0958
PSIKRNLLNEFDK [R13K] | 1.22
PSIKRNLLNEFQR [D12Q] | 2.07
LSIKRNLLNEFDR [P1L] | 1.23

Single results of other studies
Substance | target | test | test system | setting | scale | quantity | value
PhoQ, residues 284 288 289 292 302 303 AQGLTV | PhoP, residues 12 14 15 18 19 AGCRL (Escherichia coli, UniProt P23836) | Sort-seq, refers to: YFP reporter | E. coli | PhoQ-PhoP variant library, together with: 10 µM Mg2+ | baseline: high Mg2+ state, higher = stronger signaling | fold induction | 1.37

Repeated from above (block 4):
Variant | relative binding score
F124R | 90.1%
G148Y | 68%
P37Q | 81.7%
T106M | 109%
E4G | 87.5%
D75Y | 102%
G23E | 89.9%
R111Y | 51.6%
P50K | 7.5%
